# Experimental data pooled from the literature.
# Amino acid sequences for entries named in this document (tags omitted). Chains listed by the source or under a name are the forms on record and can include a tag or linker. Residues count along the entry.
# UniProt P33534, whole entry: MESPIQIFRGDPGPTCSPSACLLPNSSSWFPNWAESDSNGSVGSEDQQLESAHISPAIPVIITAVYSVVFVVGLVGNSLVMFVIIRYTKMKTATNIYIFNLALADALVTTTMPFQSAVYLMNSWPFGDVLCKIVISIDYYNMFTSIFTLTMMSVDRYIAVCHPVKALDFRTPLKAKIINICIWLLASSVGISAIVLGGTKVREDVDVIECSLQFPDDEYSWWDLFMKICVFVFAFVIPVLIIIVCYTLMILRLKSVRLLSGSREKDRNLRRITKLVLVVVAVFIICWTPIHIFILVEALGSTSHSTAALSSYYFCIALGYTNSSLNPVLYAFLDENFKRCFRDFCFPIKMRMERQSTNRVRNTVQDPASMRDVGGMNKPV
# UniProt P28221, whole entry: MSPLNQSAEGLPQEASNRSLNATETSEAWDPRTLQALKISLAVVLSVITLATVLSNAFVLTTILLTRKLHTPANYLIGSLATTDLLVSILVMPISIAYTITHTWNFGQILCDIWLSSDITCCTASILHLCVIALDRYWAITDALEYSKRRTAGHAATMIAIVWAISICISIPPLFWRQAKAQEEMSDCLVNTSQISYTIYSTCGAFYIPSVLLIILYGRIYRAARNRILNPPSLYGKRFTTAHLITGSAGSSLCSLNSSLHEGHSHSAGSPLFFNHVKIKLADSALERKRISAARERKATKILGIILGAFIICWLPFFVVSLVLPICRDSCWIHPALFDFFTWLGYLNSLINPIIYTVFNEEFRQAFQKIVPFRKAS
# UniProt P17405, 47-631 limits assumed: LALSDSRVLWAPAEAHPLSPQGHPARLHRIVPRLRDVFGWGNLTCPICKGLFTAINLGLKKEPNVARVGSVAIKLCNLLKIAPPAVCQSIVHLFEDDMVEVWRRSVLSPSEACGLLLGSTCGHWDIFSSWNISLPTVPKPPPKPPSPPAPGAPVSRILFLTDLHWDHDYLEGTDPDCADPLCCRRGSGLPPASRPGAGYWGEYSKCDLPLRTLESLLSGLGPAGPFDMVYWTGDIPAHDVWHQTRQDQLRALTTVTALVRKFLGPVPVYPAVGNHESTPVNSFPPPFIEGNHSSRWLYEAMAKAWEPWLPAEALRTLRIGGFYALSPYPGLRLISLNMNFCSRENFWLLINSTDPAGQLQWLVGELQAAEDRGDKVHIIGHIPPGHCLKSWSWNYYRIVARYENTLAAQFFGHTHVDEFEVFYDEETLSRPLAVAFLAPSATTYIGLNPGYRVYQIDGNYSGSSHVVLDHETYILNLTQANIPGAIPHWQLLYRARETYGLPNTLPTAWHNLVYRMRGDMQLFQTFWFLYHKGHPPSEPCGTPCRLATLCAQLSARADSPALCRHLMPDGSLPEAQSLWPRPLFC
# UniProt P06276, 29-602 limits assumed: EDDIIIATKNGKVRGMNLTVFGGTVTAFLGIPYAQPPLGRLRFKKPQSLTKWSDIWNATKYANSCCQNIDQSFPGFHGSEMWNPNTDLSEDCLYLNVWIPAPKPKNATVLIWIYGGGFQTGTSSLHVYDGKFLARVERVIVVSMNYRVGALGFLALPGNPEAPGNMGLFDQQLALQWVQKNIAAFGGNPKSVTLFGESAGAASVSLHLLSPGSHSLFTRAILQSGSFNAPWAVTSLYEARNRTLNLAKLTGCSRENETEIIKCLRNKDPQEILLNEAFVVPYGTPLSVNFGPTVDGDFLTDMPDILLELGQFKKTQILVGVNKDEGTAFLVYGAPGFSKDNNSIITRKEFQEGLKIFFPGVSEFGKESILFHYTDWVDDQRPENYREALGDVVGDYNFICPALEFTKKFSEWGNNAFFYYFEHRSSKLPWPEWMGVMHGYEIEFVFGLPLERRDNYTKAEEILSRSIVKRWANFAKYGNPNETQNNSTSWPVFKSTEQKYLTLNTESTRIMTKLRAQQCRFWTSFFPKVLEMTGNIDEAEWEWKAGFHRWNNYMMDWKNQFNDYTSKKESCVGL
# UniProt Q16816, whole entry: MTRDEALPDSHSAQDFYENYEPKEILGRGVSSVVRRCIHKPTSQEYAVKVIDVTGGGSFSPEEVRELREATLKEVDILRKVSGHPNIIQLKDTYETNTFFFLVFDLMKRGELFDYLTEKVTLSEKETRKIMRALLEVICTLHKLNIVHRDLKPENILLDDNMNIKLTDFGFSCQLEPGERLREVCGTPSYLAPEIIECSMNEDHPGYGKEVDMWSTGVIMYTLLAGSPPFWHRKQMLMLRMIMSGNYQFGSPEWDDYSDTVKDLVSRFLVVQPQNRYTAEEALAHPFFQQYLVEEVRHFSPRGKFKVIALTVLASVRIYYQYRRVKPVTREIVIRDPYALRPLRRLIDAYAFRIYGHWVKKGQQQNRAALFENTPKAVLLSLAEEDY
# UniProt P41145, whole entry: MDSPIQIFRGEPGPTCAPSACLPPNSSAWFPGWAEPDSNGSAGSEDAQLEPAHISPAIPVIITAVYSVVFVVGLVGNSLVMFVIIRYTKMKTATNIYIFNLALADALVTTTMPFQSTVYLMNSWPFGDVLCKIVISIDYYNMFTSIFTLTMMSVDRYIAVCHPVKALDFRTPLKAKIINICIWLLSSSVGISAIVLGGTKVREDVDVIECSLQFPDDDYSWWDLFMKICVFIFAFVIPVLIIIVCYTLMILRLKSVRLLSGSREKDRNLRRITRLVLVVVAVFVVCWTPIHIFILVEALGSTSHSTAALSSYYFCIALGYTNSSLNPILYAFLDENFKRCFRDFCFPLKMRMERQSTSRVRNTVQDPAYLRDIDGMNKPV
# UniProt P9WGR1, whole entry: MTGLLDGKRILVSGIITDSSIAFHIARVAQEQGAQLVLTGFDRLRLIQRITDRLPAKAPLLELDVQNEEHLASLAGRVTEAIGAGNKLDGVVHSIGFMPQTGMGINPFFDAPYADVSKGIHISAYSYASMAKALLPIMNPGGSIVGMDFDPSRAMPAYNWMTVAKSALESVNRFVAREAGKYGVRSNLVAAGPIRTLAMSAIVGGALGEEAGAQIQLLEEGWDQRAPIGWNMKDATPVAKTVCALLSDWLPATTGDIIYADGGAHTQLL
# UniProt P37231, 176-477 with tags or gaps isoform 2 limits assumed: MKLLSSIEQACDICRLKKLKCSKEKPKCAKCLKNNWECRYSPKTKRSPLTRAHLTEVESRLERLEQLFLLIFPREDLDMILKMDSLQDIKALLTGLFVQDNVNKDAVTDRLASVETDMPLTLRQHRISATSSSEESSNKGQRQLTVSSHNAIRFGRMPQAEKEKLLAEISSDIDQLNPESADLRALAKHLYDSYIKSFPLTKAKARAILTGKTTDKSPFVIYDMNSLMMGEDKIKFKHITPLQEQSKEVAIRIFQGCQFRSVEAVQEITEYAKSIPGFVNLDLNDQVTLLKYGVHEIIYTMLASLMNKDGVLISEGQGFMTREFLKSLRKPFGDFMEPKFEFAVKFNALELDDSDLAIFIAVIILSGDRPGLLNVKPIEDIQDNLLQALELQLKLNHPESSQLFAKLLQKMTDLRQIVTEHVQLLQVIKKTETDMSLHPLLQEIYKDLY
# UniProt Q8T632, 1-509: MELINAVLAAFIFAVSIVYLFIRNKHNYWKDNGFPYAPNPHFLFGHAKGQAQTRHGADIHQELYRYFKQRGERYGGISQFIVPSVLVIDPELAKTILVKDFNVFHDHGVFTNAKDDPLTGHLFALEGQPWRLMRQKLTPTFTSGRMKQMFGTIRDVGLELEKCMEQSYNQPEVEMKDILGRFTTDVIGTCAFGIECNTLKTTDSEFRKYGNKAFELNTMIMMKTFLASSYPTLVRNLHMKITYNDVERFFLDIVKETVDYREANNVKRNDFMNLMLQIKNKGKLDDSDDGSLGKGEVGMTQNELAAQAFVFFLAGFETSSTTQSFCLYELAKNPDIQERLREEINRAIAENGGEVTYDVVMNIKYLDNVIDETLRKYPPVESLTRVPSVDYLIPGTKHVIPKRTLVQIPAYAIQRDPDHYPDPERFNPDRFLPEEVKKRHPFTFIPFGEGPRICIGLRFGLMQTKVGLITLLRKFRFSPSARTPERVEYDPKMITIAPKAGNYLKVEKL
# UniProt Q86QH4, 1-128 partner: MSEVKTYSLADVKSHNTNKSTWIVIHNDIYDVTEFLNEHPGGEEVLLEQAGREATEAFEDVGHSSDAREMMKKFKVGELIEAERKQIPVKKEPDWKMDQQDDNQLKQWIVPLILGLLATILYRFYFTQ
# UniProt Q86QH5, 1-679 partner: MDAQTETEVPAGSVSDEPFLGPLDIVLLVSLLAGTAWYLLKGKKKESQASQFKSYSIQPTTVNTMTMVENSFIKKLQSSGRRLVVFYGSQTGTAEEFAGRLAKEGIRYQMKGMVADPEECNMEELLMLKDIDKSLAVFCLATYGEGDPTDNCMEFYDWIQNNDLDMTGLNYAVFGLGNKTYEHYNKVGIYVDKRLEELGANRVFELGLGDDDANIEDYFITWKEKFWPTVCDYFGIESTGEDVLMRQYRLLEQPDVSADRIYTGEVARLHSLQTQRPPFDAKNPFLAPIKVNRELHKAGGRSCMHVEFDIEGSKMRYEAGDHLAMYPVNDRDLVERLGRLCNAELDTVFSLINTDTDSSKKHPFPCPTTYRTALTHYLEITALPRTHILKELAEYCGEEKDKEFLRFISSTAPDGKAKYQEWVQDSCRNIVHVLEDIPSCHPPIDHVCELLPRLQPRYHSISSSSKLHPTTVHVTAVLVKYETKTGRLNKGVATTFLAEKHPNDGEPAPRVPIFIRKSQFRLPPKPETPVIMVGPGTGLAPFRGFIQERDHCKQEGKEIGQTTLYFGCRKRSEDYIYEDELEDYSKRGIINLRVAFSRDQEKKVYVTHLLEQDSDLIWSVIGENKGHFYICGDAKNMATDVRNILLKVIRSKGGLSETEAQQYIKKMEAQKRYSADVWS
# Lines come from different studies, so protocols differ. ± gives the spread as reported.
# Oprk1: Kappa-type opioid receptor (Oprk1, Mus musculus, UniProt P33534)
Substance,target or system,test,system,conditions,scale,measurement,result
CCCN1CCN(c2ccc3c(c2)C2CC3CCN2C(=O)OCc2ccccc2)CC1 (stereo not drawn),"HTR1D (Homo sapiens, UniProt P28221)","binding, radioligand binding",,,,Ki,1.91 µM
CSc1nc(Cl)cc(Sc2nnc(-c3cc(C(F)(F)F)cc(C(F)(F)F)c3)[nH]2)n1,Escherichia coli,,MC4100,added: PMBN 25 µg/mL,,MIC,0.7 µg/mL
O=C(O)c1ccccc1[As](=O)(O)O,"SMPD1 (Homo sapiens, UniProt P17405)",enzyme activity,,pH 5.0,relative to: HMU-PC over sphingomyelin substrate,potency ratio,35.3 fold
CCCC(=O)SCC[N+](C)(C)C,"Cholinesterase (BCHE, Homo sapiens, UniProt P06276)",substrate,,"pH 8.0, 22 °C",,Km,15 ± 3 µM
CC#C/C(=N\OC[C@H]1COCCN1)c1ccc2ncnc(Nc3ccc(OCc4cccc(F)c4)c(Cl)c3)c2c1,"PHKG1 (Homo sapiens, UniProt Q16816)",kinase activity,,10 µM,,inhibition,6.4%
CN(C(=O)Cc1ccc(Cl)c(Cl)c1)[C@H](CN1CCCC1)c1ccccc1,Oprk1,agonist,,mouse receptor,"relative to: larger over smaller RAi, vs dynorphin A",bias factor,10
U-69593,"OPRK1 (Homo sapiens, UniProt P41145)","ERK1/2 phosphorylation, agonist, in-cell western",CHO expressing human KOR,,relative to: reference agonist,Emax,100%
O=c1[nH]c(CC2CCCCC2)cc(O)c1-c1ccccc1,"inhA (Mycobacterium tuberculosis, UniProt P9WGR1)",thermal shift,,added: NAD+ ternary complex,,melting temperature,56.3 °C
CCN1CCN(Cc2ccc(NC(=O)c3ccc(C)c(/C=C/c4cnc5[nH]ccc5c4OC)c3)cc2C(F)(F)F)CC1,ITK-SYK fusion,"kinase-CDC37 interaction, cell-based kinome screen",,5 µM,relative to: vehicle,log2 fold change,-0.138
ethoxymethyl salvinorin B,Oprk1,agonist,,mouse receptor,"relative to: larger over smaller RAi, vs dynorphin A",bias factor,6.9
CCCCOP(=O)(OCCCC)OCCCC,"PPARG (Homo sapiens, UniProt P37231)","reporter gene, agonist",HEK293,,relative to: rosiglitazone maximum,EC15,5.86 µM
CCOc1ccc2c(c1)Oc1cc(OCC)ccc1C21OC(=O)c2ccccc21,"cyp6p3 (Anopheles gambiae, UniProt Q8T632)",substrate,,dual plasmid expression,,Km,0.9 ± 0.09 µM

# Some of these lines once more:
Substance,target or system,test,system,conditions,scale,measurement,result
CCCCOP(=O)(OCCCC)OCCCC,"PPARG (Homo sapiens, UniProt P37231)","reporter gene, agonist",HEK293,,relative to: rosiglitazone maximum,EC15,5.86 µM
